Published values of several laboratories.
Numbered parts are unrelated; each lists some results of a single study. Values joined by “and” are separate records of one study, mostly repeats; a detail may differ.
Sequence of UniProt Q9HBH9 (whole entry, looked up): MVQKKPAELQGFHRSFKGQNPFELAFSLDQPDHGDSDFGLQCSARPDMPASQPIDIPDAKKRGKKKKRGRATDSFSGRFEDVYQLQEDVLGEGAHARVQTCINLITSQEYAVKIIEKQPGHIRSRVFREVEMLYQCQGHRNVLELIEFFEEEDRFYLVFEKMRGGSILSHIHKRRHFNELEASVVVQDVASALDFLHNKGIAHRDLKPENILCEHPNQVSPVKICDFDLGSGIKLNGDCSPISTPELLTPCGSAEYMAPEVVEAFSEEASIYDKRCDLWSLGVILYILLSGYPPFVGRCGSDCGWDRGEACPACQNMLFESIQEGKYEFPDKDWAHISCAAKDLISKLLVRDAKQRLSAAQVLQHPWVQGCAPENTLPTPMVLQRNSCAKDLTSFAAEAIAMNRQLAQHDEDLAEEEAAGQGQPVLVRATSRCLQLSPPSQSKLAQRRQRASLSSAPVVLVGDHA
Sequence of UniProt Q9HCP0 (whole entry, looked up): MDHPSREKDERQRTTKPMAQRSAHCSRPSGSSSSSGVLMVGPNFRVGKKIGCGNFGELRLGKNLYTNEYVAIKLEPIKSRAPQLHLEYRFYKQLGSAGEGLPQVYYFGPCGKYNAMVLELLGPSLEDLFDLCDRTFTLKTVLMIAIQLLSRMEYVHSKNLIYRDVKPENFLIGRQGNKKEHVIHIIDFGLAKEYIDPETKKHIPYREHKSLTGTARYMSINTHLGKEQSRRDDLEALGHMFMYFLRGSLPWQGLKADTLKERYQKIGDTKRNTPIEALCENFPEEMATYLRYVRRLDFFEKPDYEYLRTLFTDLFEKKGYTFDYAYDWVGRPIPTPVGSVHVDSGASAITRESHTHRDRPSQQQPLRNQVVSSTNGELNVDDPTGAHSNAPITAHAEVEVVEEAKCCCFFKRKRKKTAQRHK
Sequence of UniProt Q13555 (whole entry, looked up): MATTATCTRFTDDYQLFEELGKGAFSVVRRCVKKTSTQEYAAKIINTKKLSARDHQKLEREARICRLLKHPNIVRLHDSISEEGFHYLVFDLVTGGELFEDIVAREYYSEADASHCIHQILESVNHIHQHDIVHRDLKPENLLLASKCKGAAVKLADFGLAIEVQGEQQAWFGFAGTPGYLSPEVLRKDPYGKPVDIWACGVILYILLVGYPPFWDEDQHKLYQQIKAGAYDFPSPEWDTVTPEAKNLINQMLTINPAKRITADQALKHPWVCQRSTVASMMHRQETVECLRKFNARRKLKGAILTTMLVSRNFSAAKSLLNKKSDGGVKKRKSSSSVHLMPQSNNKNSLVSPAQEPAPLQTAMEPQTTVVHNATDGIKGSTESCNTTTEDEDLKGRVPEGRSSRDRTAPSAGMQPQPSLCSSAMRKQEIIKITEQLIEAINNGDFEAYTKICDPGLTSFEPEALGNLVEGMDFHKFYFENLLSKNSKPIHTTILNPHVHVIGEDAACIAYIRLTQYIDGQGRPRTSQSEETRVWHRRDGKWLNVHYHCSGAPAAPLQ
Sequence of UniProt Q14680 (whole entry, looked up): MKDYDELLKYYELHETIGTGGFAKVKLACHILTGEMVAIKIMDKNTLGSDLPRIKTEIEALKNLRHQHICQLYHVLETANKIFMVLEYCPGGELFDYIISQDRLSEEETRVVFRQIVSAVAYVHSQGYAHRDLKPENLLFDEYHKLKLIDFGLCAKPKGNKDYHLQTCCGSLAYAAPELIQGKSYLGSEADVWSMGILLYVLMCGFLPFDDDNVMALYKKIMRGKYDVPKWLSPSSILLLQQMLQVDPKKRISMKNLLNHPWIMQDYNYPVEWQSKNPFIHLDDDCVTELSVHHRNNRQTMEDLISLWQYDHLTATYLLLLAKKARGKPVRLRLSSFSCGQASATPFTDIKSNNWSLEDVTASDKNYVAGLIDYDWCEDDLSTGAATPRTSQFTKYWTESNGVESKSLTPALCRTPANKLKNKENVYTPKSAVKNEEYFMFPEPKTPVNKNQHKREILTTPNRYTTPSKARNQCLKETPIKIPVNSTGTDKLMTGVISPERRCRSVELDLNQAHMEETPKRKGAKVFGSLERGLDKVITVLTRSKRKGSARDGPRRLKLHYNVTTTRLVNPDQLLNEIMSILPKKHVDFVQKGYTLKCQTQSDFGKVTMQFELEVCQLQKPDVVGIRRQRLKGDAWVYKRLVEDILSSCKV
Sequence of UniProt P52564 (whole entry, looked up): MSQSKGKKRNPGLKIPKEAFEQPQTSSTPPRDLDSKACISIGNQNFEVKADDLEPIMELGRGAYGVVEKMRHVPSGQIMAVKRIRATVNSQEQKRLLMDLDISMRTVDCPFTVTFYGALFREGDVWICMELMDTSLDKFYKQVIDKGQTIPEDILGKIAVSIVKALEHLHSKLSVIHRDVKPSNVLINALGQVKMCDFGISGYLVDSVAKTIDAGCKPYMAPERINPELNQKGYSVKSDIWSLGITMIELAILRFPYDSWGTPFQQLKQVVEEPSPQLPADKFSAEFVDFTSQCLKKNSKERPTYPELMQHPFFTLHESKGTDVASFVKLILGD
Sequence of UniProt Q8TDX7 (whole entry, looked up): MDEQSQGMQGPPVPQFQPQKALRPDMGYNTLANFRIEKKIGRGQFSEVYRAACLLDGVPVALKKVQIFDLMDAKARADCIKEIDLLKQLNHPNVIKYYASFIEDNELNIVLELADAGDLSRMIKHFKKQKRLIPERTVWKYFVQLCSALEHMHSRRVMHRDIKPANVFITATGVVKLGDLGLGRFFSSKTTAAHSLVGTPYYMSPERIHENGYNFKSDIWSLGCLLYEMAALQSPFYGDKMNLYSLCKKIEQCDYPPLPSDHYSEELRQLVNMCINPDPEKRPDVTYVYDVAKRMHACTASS
Sequence of UniProt Q16566 (whole entry, looked up): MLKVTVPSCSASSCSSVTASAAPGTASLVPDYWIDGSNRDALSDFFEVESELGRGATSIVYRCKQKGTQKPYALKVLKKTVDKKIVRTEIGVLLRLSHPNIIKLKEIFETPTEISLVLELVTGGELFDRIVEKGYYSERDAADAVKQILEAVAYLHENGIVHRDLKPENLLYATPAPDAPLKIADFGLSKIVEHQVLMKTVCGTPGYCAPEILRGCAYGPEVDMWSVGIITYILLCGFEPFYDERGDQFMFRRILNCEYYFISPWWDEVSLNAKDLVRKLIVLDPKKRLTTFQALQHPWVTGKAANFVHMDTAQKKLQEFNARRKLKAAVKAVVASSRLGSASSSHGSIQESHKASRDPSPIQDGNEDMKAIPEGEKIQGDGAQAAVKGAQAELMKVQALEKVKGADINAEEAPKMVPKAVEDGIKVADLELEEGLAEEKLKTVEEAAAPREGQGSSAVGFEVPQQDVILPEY
Sequence of UniProt Q9BUB5 (whole entry, looked up): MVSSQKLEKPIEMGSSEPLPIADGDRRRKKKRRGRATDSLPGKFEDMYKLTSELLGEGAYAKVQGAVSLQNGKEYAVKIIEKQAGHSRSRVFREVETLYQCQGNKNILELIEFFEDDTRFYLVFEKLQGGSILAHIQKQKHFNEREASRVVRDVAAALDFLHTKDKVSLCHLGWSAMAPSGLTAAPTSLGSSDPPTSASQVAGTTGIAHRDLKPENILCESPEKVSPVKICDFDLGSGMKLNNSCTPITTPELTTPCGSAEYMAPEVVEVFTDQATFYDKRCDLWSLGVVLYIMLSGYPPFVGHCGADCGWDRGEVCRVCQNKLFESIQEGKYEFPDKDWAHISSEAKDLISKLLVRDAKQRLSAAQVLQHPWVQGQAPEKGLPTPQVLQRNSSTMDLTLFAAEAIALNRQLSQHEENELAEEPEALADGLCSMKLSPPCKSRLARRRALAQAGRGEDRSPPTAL
Sequence of UniProt Q96KB5 (whole entry, looked up): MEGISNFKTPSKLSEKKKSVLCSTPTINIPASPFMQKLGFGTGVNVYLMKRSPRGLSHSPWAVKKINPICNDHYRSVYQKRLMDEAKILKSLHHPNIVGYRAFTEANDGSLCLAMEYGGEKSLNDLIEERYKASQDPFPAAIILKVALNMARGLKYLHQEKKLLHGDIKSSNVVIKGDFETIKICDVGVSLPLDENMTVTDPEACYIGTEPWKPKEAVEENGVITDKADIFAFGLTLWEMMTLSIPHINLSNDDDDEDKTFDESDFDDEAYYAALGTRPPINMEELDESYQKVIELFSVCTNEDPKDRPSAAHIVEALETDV

Study 1
Target: CRBN/Zinc finger protein Helios (Homo sapiens, UniProt Q96SW2+Q9UKS7)
Sequence of UniProt Q9UKS7 (whole entry, looked up): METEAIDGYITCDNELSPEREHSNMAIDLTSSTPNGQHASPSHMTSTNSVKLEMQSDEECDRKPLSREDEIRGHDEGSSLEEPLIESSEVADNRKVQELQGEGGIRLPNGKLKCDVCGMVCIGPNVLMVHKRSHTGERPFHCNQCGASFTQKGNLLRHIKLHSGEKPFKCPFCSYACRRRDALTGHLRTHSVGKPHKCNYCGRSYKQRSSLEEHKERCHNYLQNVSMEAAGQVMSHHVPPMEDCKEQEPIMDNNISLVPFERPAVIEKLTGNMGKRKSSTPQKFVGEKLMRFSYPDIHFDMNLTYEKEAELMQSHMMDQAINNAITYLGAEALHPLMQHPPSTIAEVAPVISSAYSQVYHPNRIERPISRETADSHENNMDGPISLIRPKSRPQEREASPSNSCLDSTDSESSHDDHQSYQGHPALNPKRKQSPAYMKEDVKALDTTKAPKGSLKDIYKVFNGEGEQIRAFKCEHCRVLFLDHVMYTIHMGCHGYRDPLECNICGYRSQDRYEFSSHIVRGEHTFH
Sequence of UniProt Q96SW2 (whole entry, looked up): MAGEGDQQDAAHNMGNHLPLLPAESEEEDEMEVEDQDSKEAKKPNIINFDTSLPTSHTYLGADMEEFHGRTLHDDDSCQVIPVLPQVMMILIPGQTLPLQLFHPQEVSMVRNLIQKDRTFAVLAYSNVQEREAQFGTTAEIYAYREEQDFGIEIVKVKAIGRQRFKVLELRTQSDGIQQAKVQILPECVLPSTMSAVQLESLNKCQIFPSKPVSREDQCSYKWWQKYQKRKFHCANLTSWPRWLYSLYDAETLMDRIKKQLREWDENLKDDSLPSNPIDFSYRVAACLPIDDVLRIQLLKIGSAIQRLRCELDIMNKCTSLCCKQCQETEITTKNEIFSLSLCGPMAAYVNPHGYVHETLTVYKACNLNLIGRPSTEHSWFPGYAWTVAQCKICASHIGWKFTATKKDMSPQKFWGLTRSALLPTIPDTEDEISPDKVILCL
Action: degrader
Technique: HiBiT
Cell line: HEK293
Tested at: 123.5 nM
For `O=C1CCC(N2Cc3c(ccc4c3OCCC43CCN(Cc4ccccc4)CC3)C2=O)C(=O)N1` (centres unmarked), the protein remaining was 69.2%.
The protein remaining of `O=C1CCC(N2Cc3c(ccc4c3OCC43CCC(Cc4ccccc4)CC3)C2=O)C(=O)N1` (centres unmarked) is reported as 94.1%.
The protein remaining of `O=C1CCC(N2Cc3c(ccc4c3OCC43CCC(Oc4ccccc4)CC3)C2=O)C(=O)N1` (centres unmarked) is reported as 86.1%.

Study 2
Organism: Sarcocystis neurona
Read-out: parasite growth
Tested at: 10 µM
Time: 96 h
Notes: first screen
Reference: untreated
Under “log2 fold change”, `Cn1nnc2c(C(N)=O)ncn2c1=O` is recorded as 0.05.
`COc1ccccc1N1CCN(CC(O)COc2cccc3ccccc23)CC1` (centres unmarked) — result for “log2 fold change”: -0.19.
`CC1(C)S[C@@H]2[C@H](NC(=O)[C@H](N)c3ccc(O)cc3)C(=O)N2[C@H]1C(=O)O` — result for “log2 fold change”: 0.2.
`C=C1/C(=C\C=C2/CCC[C@]3(C)[C@@H]([C@H](C)/C=C/[C@@H](O)C4CC4)CC[C@@H]23)C[C@@H](O)C[C@@H]1O` — result for “log2 fold change”: 0.26.
For `CN(C/C=C/C#CC(C)(C)C)Cc1cccc2ccccc12`, “log2 fold change” read 0.13.
For `C[N+]1(C)CCC(OC(=O)C(O)(c2ccccc2)C2CCCC2)C1` (centres unmarked), “log2 fold change” read 0.25.
For `O=C(O)COCCN1CCN(C(c2ccccc2)c2ccc(Cl)cc2)CC1` (centres unmarked), “log2 fold change” read -0.96.

Study 3
Cell line: mouse MPNST tumor cells
Technique: high-content nuclear imaging
Item: cell number
Tested at: 10 µM
Time: 12 h
Notes: mean of 2 replicates
Reference: plate mean
Direction: higher = more cells
`Cc1nc(Nc2ncc(C(=O)Nc3c(C)cccc3Cl)s2)cc(N2CCN(CCO)CC2)n1` gave a nuclei count of -5.06 z-score.
`CC1(C)NC(=O)N(c2ccc([N+](=O)[O-])c(C(F)(F)F)c2)C1=O` gave a nuclei count of 0.529 z-score.
The nuclei count of `CCOC(=O)C1Cc2ccccc2CN1C(=O)c1ccc(SC)s1` (centres unmarked) is reported as 1.44 z-score.
The nuclei count of `C/C=C1\C(=O)C[C@H]2[C@@H]3CCC4=CC(=O)CC[C@]4(C)[C@H]3CC[C@]12C` is reported as -2.16 z-score.
With `CC(C)(O)c1ccn2c(-c3ccc(F)c(-c4ccc(F)cc4C#N)c3)cnc2c1F` the nuclei count was 1.38 z-score.
With `CN1CCN(C(c2ccccc2)c2ccc(Cl)cc2)CC1` (centres unmarked) the nuclei count was -0.747 z-score.
For `NCCc1c[nH]cn1`, the nuclei count was 2 z-score and 0.439 z-score.

Study 4
Compound: O=C1NC(=O)c2c1c1c3ccccc3[nH]c1c1[nH]c3cc(Br)ccc3c21
Read-out: enzyme activity
Action: inhibitor
Tested at: 0.5 µM
Reference: control
The remaining activity was 96.2% (Casein kinase I isoform gamma-1 (CSNK1G1, Homo sapiens, UniProt Q9HCP0)).
Ephrin type-A receptor 8 (EPHA8, Homo sapiens, UniProt P29322) — remaining activity: 102%.
It gave 81.1% for remaining activity (Non-receptor tyrosine-protein kinase TYK2 (TYK2, Homo sapiens, UniProt P29597)).
For MAP kinase-interacting serine/threonine-protein kinase 1 (MKNK1, Homo sapiens, UniProt Q9BUB5): remaining activity read 81.5%.
For Lymphokine-activated killer T-cell-originated protein kinase (PBK, Homo sapiens, UniProt Q96KB5): remaining activity read 86.3%.
The remaining activity was 84.5% (NUAK family SNF1-like kinase 2 (NUAK2, Homo sapiens, UniProt Q9H093)).
The remaining activity was 81.8% (Interleukin-1 receptor-associated kinase 1 (IRAK1, Homo sapiens, UniProt P51617)).
Calcium/calmodulin-dependent protein kinase type II subunit gamma (CAMK2G, Homo sapiens, UniProt Q13555) — remaining activity: 99.5%.

Study 5
SMILES: N#CC1(c2ccccn2)CCN(Cc2cc(C(=O)N3CCCC3)c(=O)n3ccccc23)CC1
Read-out: cell-free assay
Technique: competition with immobilised ligand
Tested at: 1 µM
For Calcium/calmodulin-dependent protein kinase type 1 (CAMK1, Homo sapiens, UniProt Q14012): remaining binding read 100%.
Casein kinase I isoform epsilon (CSNK1E, Homo sapiens, UniProt P49674) — remaining binding: 100%.
For Epidermal growth factor receptor (EGFR, Homo sapiens, UniProt P00533, T790M): remaining binding read 90%.
The remaining binding was 100% (Glycogen synthase kinase-3 beta (GSK3B, Homo sapiens, UniProt P49841)).
Proto-oncogene tyrosine-protein kinase Src (SRC, Homo sapiens, UniProt P12931) — remaining binding: 56%.
It gave 78% for remaining binding (Maternal embryonic leucine zipper kinase (MELK, Homo sapiens, UniProt Q14680)).
Bone morphogenetic protein receptor type-2 (BMPR2, Homo sapiens, UniProt Q13873) — remaining binding: 92%.
It gave 100% for remaining binding (ALK tyrosine kinase receptor (ALK, Homo sapiens, UniProt Q9UM73, C1156Y)).
The remaining binding was 98% (Dual specificity mitogen-activated protein kinase kinase 6 (MAP2K6, Homo sapiens, UniProt P52564)).
The remaining binding was 87% (Epidermal growth factor receptor (EGFR, Homo sapiens, UniProt P00533, L858R)).
The remaining binding was 96% (Calcium/calmodulin-dependent protein kinase type IV (CAMK4, Homo sapiens, UniProt Q16566)).
Ribosomal protein S6 kinase alpha-3, C-terminal kinase domain (RPS6KA3, Homo sapiens, UniProt P51812) — remaining binding: 100%.
For Serine/threonine-protein kinase TNNI3K (TNNI3K, Homo sapiens, UniProt Q59H18): remaining binding read 89%.
For Fibroblast growth factor receptor 1 (FGFR1, Homo sapiens, UniProt P11362): remaining binding read 93%.
Serine/threonine-protein kinase Nek5 (NEK5, Homo sapiens, UniProt Q6P3R8) — remaining binding: 82%.
Tyrosine-protein kinase HCK (HCK, Homo sapiens, UniProt P08631) — remaining binding: 100%.
For Inhibitor of nuclear factor kappa-B kinase subunit alpha (CHUK, Homo sapiens, UniProt O15111): remaining binding read 94%.
MAP kinase-interacting serine/threonine-protein kinase 2 (MKNK2, Homo sapiens, UniProt Q9HBH9) — remaining binding: 96%.
The remaining binding was 82% (Serine/threonine-protein kinase Nek7 (NEK7, Homo sapiens, UniProt Q8TDX7)).
It gave 92% for remaining binding (Epidermal growth factor receptor (EGFR, Homo sapiens, UniProt P00533, del746-750)).
The remaining binding was 86% (Receptor-type tyrosine-protein kinase FLT3 (FLT3, Homo sapiens, UniProt P36888)).
The remaining binding was 89% (Tyrosine-protein kinase ABL1, phosphorylated (ABL1, Homo sapiens, UniProt P00519)).
It gave 86% for remaining binding (Cyclin-dependent kinase 2 (CDK2, Homo sapiens, UniProt P24941)).
Hepatocyte growth factor receptor (MET, Homo sapiens, UniProt P08581, M1250T) — remaining binding: 80%.
Tyrosine-protein kinase Fer (FER, Homo sapiens, UniProt P16591) — remaining binding: 89%.

A few entries again (study 2):
`C=C1/C(=C\C=C2/CCC[C@]3(C)[C@@H]([C@H](C)/C=C/[C@@H](O)C4CC4)CC[C@@H]23)C[C@@H](O)C[C@@H]1O` — result for “log2 fold change”: 0.26.
`CC1(C)S[C@@H]2[C@H](NC(=O)[C@H](N)c3ccc(O)cc3)C(=O)N2[C@H]1C(=O)O` — result for “log2 fold change”: 0.2.
`COc1ccccc1N1CCN(CC(O)COc2cccc3ccccc23)CC1` (centres unmarked) — result for “log2 fold change”: -0.19.
For `CN(C/C=C/C#CC(C)(C)C)Cc1cccc2ccccc12`, “log2 fold change” read 0.13.
For `O=C(O)COCCN1CCN(C(c2ccccc2)c2ccc(Cl)cc2)CC1` (centres unmarked), “log2 fold change” read -0.96.
For `C[N+]1(C)CCC(OC(=O)C(O)(c2ccccc2)C2CCCC2)C1` (centres unmarked), “log2 fold change” read 0.25.
Under “log2 fold change”, `Cn1nnc2c(C(N)=O)ncn2c1=O` is recorded as 0.05.
